Experimental data of several laboratories.
CDK7 with cyclin H: Cyclin-dependent kinase 7, with cyclin H (CDK7, Homo sapiens, UniProt P50613)
UniProt P50613, sequence (whole entry, looked up): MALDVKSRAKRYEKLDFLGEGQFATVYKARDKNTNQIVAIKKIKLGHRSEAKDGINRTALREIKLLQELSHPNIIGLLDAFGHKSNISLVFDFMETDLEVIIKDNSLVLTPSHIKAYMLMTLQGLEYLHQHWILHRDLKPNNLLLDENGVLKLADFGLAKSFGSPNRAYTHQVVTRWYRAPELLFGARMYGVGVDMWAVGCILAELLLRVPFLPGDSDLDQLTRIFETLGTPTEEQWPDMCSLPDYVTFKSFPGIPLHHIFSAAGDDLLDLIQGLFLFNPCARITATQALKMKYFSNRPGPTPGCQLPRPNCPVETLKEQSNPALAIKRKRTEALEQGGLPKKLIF
AMY2: Pancreatic alpha-amylase (AMY2, Sus scrofa, UniProt P00690)
UniProt P00690, sequence (whole entry, looked up): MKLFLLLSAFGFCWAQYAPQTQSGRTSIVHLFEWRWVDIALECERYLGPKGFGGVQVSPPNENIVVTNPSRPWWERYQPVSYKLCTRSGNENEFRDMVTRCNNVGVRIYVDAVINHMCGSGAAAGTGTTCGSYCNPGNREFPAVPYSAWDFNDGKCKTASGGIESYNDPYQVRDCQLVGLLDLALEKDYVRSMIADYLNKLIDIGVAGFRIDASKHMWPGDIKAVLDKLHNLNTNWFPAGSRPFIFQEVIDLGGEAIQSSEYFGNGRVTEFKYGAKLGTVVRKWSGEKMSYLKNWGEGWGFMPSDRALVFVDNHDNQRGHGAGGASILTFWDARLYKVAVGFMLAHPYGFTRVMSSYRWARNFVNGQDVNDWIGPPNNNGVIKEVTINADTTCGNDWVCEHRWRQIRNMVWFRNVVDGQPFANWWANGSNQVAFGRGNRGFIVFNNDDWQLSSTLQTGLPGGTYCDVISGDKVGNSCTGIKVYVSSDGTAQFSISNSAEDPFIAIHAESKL
rep papain-like protease: Replicase polyprotein 1ab, papain-like protease (rep, Porcine epidemic diarrhea virus, UniProt P0C6Y4)
PIP4K2C: Phosphatidylinositol 5-phosphate 4-kinase type-2 gamma (PIP4K2C, Homo sapiens, UniProt Q8TBX8)
UniProt Q8TBX8, sequence (whole entry, looked up): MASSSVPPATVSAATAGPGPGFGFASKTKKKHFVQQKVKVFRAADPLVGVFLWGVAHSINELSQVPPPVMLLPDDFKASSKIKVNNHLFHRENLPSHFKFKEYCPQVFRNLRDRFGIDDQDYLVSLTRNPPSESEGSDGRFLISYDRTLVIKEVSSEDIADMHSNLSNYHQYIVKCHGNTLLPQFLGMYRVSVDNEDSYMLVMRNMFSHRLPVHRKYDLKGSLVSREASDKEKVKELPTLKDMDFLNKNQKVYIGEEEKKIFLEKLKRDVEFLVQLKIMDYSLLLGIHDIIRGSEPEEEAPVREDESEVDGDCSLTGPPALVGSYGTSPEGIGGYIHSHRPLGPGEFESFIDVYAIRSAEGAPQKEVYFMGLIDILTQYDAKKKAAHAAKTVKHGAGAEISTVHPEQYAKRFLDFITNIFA
SLC22A11: Solute carrier family 22 member 11 (SLC22A11, Homo sapiens, UniProt Q9NSA0)
UniProt Q9NSA0, sequence (whole entry, looked up): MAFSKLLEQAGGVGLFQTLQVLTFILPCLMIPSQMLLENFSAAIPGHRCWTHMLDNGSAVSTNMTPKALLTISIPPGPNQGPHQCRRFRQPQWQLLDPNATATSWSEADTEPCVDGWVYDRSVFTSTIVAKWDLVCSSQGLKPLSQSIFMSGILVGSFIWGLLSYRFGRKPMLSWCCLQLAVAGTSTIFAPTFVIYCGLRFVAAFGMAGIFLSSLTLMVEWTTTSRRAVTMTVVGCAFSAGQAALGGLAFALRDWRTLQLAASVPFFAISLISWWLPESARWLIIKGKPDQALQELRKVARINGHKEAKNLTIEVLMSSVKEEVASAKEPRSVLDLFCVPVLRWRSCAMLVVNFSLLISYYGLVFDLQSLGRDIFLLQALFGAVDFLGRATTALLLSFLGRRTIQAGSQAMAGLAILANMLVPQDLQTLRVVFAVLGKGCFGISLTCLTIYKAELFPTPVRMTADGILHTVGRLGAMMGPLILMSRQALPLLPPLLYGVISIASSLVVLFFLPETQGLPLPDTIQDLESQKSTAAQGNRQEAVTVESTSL
NT5E: 5'-nucleotidase (NT5E, Homo sapiens, UniProt P21589)
UniProt P21589, sequence (whole entry, looked up): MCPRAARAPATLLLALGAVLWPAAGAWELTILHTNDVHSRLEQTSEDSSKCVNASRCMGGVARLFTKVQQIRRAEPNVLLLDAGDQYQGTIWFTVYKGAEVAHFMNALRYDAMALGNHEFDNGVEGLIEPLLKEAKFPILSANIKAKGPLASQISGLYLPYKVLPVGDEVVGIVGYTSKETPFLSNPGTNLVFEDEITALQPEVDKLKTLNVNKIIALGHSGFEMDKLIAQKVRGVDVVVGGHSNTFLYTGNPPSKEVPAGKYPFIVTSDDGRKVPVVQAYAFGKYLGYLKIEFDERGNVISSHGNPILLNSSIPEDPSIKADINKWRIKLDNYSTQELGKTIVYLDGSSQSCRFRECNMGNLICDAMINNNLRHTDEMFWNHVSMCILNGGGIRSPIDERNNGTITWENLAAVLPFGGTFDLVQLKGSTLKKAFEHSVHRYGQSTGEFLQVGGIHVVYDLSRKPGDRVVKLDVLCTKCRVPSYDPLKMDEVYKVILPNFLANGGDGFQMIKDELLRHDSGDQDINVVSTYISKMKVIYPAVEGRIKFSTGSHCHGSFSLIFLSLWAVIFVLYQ
SLC6A2: Sodium-dependent noradrenaline transporter (SLC6A2, Homo sapiens, UniProt P23975)
UniProt P23975, sequence (whole entry, looked up): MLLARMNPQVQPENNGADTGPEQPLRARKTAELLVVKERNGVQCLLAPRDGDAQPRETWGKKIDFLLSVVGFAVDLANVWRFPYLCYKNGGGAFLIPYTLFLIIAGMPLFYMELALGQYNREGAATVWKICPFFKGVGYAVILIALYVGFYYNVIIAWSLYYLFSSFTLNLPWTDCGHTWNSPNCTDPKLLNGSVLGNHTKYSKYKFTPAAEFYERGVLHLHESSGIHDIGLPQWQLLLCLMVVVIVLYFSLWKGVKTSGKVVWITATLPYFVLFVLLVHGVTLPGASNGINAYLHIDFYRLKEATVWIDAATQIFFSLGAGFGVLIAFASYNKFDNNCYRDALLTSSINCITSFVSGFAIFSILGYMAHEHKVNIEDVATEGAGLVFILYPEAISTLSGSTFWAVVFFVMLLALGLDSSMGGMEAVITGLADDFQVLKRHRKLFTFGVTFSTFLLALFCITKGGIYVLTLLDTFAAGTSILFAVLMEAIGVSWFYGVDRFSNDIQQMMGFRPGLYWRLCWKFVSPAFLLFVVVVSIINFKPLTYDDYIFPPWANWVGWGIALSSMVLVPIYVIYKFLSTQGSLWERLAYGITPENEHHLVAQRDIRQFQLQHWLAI
MAPK3: Mitogen-activated protein kinase 3 (MAPK3, Homo sapiens, UniProt P27361)
UniProt P27361, sequence (whole entry, looked up): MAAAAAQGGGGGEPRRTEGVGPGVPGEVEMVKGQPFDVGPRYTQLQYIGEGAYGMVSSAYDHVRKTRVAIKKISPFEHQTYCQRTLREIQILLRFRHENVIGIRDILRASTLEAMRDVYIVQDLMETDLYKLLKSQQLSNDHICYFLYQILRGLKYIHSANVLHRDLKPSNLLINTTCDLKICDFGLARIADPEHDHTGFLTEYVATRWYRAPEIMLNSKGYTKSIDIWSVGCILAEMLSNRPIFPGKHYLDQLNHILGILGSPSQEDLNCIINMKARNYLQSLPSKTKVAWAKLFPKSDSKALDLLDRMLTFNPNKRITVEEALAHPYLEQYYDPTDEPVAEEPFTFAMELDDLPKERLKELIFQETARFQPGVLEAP
UniProt P27338, sequence (whole entry, looked up): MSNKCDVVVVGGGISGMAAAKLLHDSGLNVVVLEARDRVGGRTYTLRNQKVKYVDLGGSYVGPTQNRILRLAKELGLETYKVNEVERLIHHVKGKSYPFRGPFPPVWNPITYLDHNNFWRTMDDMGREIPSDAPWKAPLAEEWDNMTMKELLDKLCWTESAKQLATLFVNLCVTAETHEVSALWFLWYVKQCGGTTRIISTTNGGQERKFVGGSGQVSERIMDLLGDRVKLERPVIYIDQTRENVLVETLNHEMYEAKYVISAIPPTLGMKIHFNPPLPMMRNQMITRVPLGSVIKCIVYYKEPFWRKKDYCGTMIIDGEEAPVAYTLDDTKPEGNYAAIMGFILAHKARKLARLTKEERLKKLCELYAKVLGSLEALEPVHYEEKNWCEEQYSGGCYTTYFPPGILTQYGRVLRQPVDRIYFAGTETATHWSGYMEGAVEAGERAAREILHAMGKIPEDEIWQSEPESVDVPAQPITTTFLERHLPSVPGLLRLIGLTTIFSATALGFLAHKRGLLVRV
UniProt O42275, sequence (whole entry, looked up): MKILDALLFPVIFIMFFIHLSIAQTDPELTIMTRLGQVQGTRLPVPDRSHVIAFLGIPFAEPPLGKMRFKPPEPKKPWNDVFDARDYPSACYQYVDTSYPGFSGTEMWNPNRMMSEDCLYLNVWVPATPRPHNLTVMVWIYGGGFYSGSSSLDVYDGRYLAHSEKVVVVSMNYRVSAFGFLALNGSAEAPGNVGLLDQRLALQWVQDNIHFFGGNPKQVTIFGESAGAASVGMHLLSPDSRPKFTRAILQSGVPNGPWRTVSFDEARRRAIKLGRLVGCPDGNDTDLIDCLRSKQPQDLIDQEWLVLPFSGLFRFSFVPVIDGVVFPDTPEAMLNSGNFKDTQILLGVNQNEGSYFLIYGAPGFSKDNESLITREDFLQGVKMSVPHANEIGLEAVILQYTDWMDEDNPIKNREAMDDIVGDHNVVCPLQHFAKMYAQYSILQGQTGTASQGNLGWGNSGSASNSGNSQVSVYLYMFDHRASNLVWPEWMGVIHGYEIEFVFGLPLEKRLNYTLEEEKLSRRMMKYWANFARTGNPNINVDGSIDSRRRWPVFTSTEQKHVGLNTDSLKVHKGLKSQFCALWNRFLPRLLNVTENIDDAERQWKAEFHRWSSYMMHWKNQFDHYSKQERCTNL

O=C(/C=C/c1ccc(O)cc1)CC(=O)/C=C/c1ccc(O)cc1
inhibition (CDK7 with cyclin H; enzyme activity, inhibitor, ADP detection; 10 µM): 48.9%

CCCN(O)N=Nc1ccc(S(=O)(=O)Nc2onc(C)c2C)cc1
inhibition (AMY2; enzyme activity, inhibitor; 240 µg/mL): 63.2%

O=C(NCc1cc(O)c(O)c(Br)c1)c1ccc(Cl)nc1
inhibition (rep papain-like protease; enzyme activity, inhibitor, FRET; 10 µM): 7.12%

Cc1cc(NS(=O)(=O)c2ccc(N=NN(O)c3ccccc3)cc2)no1
inhibition (AMY2; enzyme activity, inhibitor; 60 µg/mL): 26.3%

CCCCC(=O)Nc1ccc(-c2ccc3ncn(CCCF)c(=O)c3c2)cn1
inhibition (PIP4K2C; binding, competition with immobilised ligand; 0.5 µM): 99.2%

CCN(O)N=Nc1ccc(S(=O)(=O)Nc2onc(C)c2C)cc1
inhibition (AMY2; enzyme activity, inhibitor; 20 µg/mL): 10.5%

COC(=O)c1c(OC)cc2c(c1C)Oc1c(Cl)c(O)c(Cl)c(C)c1C(=O)O2
inhibition (SLC22A11; transporter uptake, inhibitor; 25 µM): 92.2%

COc1cc2c(cc1OC)C(=O)N(CC1CCNC1)C2 (stereo not shown)
inhibition (ache (Electrophorus electricus, UniProt O42275); enzyme activity, inhibitor; 1 µM): -2.36%

COCCOCCOCCNC(=O)CSc1nc(C)cc(C)c1C#N
inhibition (NT5E; enzyme activity, inhibitor; 10 µM): 14%

COc1ccc(Cl)cc1-c1cc(=O)[nH]c(=S)n1CC(N)=O
inhibition (Myeloperoxidase (MPO, Homo sapiens, UniProt P05164); enzyme activity, inhibitor, fluorescence; 10 µM): 98.5%

COc1cc(CNC(=O)c2sc3nc(C)cc(-c4ccccc4)c3c2N)cc(OC)c1OC
inhibition (NT5E; enzyme activity, inhibitor; 10 µM): -31%

CN1CC(Oc2cnc(C#N)cc2-c2ccn3nc(NC(=O)C4CC4)cc3c2)C1
inhibition (PRKCZ (Homo sapiens, UniProt Q05513); enzyme activity, inhibitor; 1 µM): 5%

COc1cc(CNC(=O)c2cccc(Br)c2)cc(Br)c1OC
inhibition (rep papain-like protease; enzyme activity, inhibitor, FRET; 10 µM): 21.4%

Cc1cccc(N(O)N=Nc2ccc(S(=O)(=O)Nc3onc(C)c3C)cc2)c1
inhibition (AMY2; enzyme activity, inhibitor; 60 µg/mL): 26.3%

CCOC(=O)[C@@]12C[C@@H]1[C@@H](n1cnc3c(NC4CC4)nc(C#Cc4ccc(Cl)s4)nc31)[C@H](O)[C@@H]2O
inhibition (SLC6A2; ligand displacement, radioligand; 10 µM): 63%

[2H]c1cc(C)c(NC(=O)c2cnc(Nc3cc(N4CCCCC4)nc(C)n3)s2)c(Cl)c1
inhibition (BTK (Homo sapiens, UniProt Q06187); enzyme activity, inhibitor, mobility shift; 10 nM): > 90%

CC[C@H](C)[C@H](NC(=O)[C@H](CCC(N)=O)NC(=O)[C@H](CC(C)C)NC(=O)[C@H](CCSC)NC(=O)[C@H](CCCCN)NC(=O)[C@H](CO)NC(=O)[C@H](CO)NC(=O)[C@H](CCSC)NC(=O)[C@H](CC(C)C)NC(=O)[C@H](CC(N)=O)NC(=O)[C@@H](NC(=O)[C@@H](NC(=O)[C@H](CO)NC(=O)[C@H](CC(C)C)NC(=O)[C@H](CS)NC(=O)[C@H](CCCNC(=N)N)NC(=O)[C@H](CC(=O)O)NC(=O)[C@H](Cc1c[nH]c2ccccc12)NC(=O)[C@H](Cc1ccccc1)NC(=O)[C@H](C)NC(=O)[C@H](CCC(=O)O)NC(=O)[C@@H](N)CCCCN)C(C)C)[C@@H](C)CC)C(=O)N[C@@H](CC(N)=O)C(=O)N[C@@H](C)C(=O)O
inhibition (MAPK3; enzyme activity, inhibitor, radiometric; 250 µM): 11%

CCc1nn(C)c2nc(-c3ccc(C(=O)O)cc3)nc(NCc3ccc(F)cc3)c12
inhibition (PDE4A (Homo sapiens, UniProt P27815); enzyme activity, inhibitor, radiometric; 10 µM): 31.2%

CC[C@H](C)[C@H](NC(=O)[C@H](CCC(N)=O)NC(=O)[C@@H](NC(=O)[C@H](CCSC)NC(=O)[C@H](CCCCN)NC(=O)[C@H](CO)NC(=O)[C@@H](NC(=O)[C@H](CCSC)NC(=O)[C@H](CC(C)C)NC(=O)[C@H](CC(N)=O)NC(=O)[C@@H](NC(=O)[C@@H](NC(=O)[C@H](CO)NC(=O)[C@H](CC(C)C)NC(=O)[C@H](C)NC(=O)[C@H](CCCNC(=N)N)NC(=O)[C@H](CCC(=O)O)NC(=O)[C@H](Cc1ccc(O)cc1)NC(=O)[C@H](Cc1ccccc1)NC(=O)[C@H](C)NC(=O)[C@H](CC(N)=O)NC(=O)[C@@H](N)CCCCN)[C@@H](C)CC)[C@@H](C)CC)[C@@H](C)O)C(C)C)C(=O)N[C@@H](CC(N)=O)C(=O)N[C@H](C(=O)O)C(C)C
inhibition (MAPK3; enzyme activity, inhibitor, radiometric; 100 µM): 15%

CCN(O)N=Nc1ccc(S(=O)(=O)Nc2nccs2)cc1
inhibition (AMY2; enzyme activity, inhibitor; 60 µg/mL): 10.5%

NC/C(=C\F)COc1cccc(Cn2c(=S)[nH]c(=O)c3[nH]cnc32)c1
inhibition (SLC6A2; ligand displacement, radioligand; 10 µM): < 50%

CNc1cc(Oc2cc(C(=O)Nc3cc(N4CCN(C)CC4)cc(C(F)(F)F)c3)ccc2C)ncn1
inhibition (Ribosomal protein S6 kinase alpha-3, N-terminal kinase domain (RPS6KA3, Homo sapiens, UniProt P51812); target engagement in cells, inhibitor, chemoproteomics; Huh-7; 1 µM): -70.9%

CCC(C(=O)NCc1cc(O)c(O)c(Br)c1)c1ccccc1 (stereo not shown)
inhibition (Replicase polyprotein 1ab, main protease (rep, Porcine epidemic diarrhea virus, UniProt P0C6Y4); enzyme activity, inhibitor, FRET; 10 µM): 87.5%

O=c1c(-c2ccc(O)cc2)coc2cc(O)ccc12
inhibition (CDK7 with cyclin H; enzyme activity, inhibitor, ADP detection; 10 µM): 31.9%

COc1cc(CNC(=O)c2ccno2)cc(Br)c1OC
inhibition (rep papain-like protease; enzyme activity, inhibitor, FRET; 10 µM): 3.83%

CCCn1cnc2ccc(-c3ccc(NC(=O)c4ccccc4)nc3)cc2c1=O
inhibition (PIP4K2C; binding, competition with immobilised ligand; 0.5 µM): 99.5%

c1ccc2[nH]c(-c3cscn3)nc2c1
inhibition (SLC22A11; transporter uptake, inhibitor; 25 µM): 81.3%

O=C(NCc1ccc(O)c(O)c1)c1ccc(Br)cc1
inhibition (rep papain-like protease; enzyme activity, inhibitor, FRET; 10 µM): 31.9%

COC(=O)CNC(=O)CSc1nc(C)cc(C)c1C#N
inhibition (NT5E; enzyme activity, inhibitor; 10 µM): -10%

CCCCCCCCCCCC1=C(O)C(=O)C=C(O)C1=O
inhibition (CDK7 with cyclin H; enzyme activity, inhibitor, ADP detection; 10 µM): -17.8%

COc1cc(CNC(=O)c2c[nH]c3ccccc23)cc(Br)c1OC
inhibition (rep papain-like protease; enzyme activity, inhibitor, FRET; 10 µM): 16.5%

CCCCC(=O)Nc1ccc(-c2ccc3ncn(C4CC4)c(=O)c3c2)cn1
inhibition (PIP4K2C; binding, competition with immobilised ligand; 0.5 µM): 98.8%

N#Cc1cccc(C(=O)NCc2cc(O)c(O)c(Br)c2)c1
inhibition (rep papain-like protease; enzyme activity, inhibitor, FRET; 10 µM): 72%

C#Cc1cc(-c2cc(Nc3nc(N[C@@H](C)c4ccc(F)cn4)ncc3Cl)n[nH]2)ccc1C=O
inhibition (MARK4 (Homo sapiens, UniProt Q96L34); enzyme activity, inhibitor; 0.2 µM): 8.98%

CCCCC(=O)Nc1ccc(-c2ccc3ncn(CC)c(=O)c3c2)cn1
inhibition (PIP4K2C; binding, competition with immobilised ligand; 0.5 µM): 98.3%

Cc1cccc(N(O)N=Nc2ccc(S(=O)(=O)Nc3cc(C)on3)cc2)c1
inhibition (AMY2; enzyme activity, inhibitor; 120 µg/mL): 36.8%

Cc1cc(C(F)(F)F)c2c(N)c(C(=O)Nc3ccccc3)sc2n1
inhibition (NT5E; enzyme activity, inhibitor; 10 µM): 58%

O=C1C[C@@H](c2ccc(O)cc2)Oc2c(Br)c(O)c(Br)c(O)c21
inhibition (AMY2; enzyme activity, inhibitor; 50 µM, 30 min): 52.3%

O=C(Nc1ccc(Cl)c(Cl)c1)c1ccc2c(c1)C(=O)NC2=O
inhibition (MAOB (Homo sapiens, UniProt P27338); enzyme activity, inhibitor; 1 µM): 95.7%

Cc1cccc(NC(=O)CSc2nc(-c3ccccc3)cc(C)c2C#N)n1
inhibition (NT5E; enzyme activity, inhibitor; 10 µM): 58%

Cc1noc(NS(=O)(=O)c2ccc(N=NN(O)c3ccccc3)cc2)c1C
inhibition (AMY2; enzyme activity, inhibitor; 120 µg/mL): 42.1%

CCOC(=O)c1ccc(NC(=O)CCSc2nc(C)cc(C)c2C#N)cc1
inhibition (NT5E; enzyme activity, inhibitor; 10 µM): -5%

COc1ccc(C(=O)NCc2ccc(OC)c(OC)c2)cc1
inhibition (rep papain-like protease; enzyme activity, inhibitor, FRET; 10 µM): 55.4%

N#C[C@@]12C[C@@H]1[C@@H](n1cnc3c(Nc4ccc(Cl)c(Cl)c4)nc(I)nc31)[C@H](O)[C@@H]2O
inhibition (SLC6A2; ligand displacement, radioligand; 10 µM): 29%

Cc1cccc(NC(=O)CSc2nc(C)cc(-c3ccccc3)c2C#N)n1
inhibition (NT5E; enzyme activity, inhibitor, HPLC; 10 µM): 98%

Cc1cc(NS(=O)(=O)c2ccc(N=NN(C)O)cc2)no1
inhibition (AMY2; enzyme activity, inhibitor; 240 µg/mL): 57.9%

Repeated from above:
COc1ccc(C(=O)NCc2ccc(OC)c(OC)c2)cc1
inhibition (rep papain-like protease; enzyme activity, inhibitor, FRET; 10 µM): 55.4%

N#C[C@@]12C[C@@H]1[C@@H](n1cnc3c(Nc4ccc(Cl)c(Cl)c4)nc(I)nc31)[C@H](O)[C@@H]2O
inhibition (SLC6A2; ligand displacement, radioligand; 10 µM): 29%
